Assay results pooled from the literature.
Parts stem from different laboratories: compare values within a part only.
UniProt P30530, sequence (whole entry, looked up): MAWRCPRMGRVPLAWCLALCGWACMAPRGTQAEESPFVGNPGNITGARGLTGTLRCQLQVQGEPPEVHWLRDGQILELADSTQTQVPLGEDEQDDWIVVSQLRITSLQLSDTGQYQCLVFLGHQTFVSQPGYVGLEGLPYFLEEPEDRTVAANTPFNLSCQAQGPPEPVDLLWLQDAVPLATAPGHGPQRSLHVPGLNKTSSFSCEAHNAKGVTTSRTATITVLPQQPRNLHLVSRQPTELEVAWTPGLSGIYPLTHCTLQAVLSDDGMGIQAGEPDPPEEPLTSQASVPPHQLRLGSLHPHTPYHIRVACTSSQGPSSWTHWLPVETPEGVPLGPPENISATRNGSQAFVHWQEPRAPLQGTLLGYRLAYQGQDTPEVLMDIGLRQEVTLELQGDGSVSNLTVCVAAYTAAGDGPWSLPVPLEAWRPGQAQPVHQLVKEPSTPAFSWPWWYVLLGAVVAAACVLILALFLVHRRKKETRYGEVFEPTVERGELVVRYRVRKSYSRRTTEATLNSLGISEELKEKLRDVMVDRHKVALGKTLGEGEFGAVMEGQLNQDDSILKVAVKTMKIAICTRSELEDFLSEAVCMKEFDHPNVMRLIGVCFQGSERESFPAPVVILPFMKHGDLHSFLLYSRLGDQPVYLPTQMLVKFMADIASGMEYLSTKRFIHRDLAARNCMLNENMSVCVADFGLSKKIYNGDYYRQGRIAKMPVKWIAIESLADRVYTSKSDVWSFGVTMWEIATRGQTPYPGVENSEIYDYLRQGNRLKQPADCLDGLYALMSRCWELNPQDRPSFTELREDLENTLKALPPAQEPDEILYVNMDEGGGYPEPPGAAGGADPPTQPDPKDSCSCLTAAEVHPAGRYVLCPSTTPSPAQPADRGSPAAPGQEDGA
UniProt Q16654, sequence (whole entry, looked up): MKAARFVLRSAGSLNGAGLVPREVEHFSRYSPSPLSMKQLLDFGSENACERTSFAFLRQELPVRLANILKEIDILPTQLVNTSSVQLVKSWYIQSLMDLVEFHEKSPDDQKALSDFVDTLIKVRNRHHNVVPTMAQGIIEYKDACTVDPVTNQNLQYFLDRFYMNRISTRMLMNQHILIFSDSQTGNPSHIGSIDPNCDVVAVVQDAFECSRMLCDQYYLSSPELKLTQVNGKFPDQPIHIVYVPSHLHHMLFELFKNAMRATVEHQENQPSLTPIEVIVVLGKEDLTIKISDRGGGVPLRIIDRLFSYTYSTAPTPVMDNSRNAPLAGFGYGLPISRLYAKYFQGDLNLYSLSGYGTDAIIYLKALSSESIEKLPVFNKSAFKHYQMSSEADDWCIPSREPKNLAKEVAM
UniProt Q8WTQ7, sequence (whole entry, looked up): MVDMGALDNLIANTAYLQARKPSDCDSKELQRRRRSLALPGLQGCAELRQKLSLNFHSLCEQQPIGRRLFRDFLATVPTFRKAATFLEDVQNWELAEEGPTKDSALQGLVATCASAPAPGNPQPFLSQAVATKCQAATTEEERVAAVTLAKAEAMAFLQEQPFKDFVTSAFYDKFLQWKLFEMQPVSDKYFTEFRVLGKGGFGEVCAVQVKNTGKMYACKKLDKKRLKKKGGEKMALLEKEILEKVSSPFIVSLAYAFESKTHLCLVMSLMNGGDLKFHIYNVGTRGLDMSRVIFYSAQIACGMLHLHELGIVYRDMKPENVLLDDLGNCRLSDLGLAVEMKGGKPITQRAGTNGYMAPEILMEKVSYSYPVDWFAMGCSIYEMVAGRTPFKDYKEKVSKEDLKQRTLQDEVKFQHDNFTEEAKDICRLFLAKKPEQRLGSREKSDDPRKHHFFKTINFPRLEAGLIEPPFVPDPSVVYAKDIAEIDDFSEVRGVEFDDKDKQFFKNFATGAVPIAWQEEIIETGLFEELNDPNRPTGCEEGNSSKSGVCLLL
UniProt O15264, sequence (whole entry, looked up): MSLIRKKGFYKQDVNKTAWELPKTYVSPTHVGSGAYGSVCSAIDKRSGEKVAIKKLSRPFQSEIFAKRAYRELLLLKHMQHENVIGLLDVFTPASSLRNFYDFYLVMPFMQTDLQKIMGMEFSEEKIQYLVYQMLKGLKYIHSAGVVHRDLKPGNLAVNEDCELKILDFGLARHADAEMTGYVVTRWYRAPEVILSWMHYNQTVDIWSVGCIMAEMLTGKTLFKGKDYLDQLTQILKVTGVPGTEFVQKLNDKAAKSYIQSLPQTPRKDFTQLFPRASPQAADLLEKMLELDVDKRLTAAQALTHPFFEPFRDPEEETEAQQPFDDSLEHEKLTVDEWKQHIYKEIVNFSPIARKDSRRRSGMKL
UniProt Q96SB4, sequence (whole entry, looked up): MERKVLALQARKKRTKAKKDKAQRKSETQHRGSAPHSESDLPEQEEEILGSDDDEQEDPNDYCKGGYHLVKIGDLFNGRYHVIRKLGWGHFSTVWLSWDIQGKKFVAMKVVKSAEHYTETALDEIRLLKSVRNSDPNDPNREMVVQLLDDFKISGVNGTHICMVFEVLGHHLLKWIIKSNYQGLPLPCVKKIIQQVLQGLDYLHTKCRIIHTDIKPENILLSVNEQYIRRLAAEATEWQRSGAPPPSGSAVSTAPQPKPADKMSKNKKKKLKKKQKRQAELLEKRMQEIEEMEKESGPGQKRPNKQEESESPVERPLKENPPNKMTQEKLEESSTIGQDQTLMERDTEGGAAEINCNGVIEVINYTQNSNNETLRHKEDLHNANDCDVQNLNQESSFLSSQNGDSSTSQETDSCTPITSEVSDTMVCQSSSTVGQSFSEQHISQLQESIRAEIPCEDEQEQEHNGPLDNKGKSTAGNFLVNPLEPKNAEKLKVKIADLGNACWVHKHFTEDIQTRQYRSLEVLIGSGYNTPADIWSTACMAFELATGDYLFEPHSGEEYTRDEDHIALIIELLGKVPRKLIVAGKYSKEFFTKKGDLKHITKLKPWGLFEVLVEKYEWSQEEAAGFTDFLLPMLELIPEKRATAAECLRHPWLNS
UniProt O14965, sequence (whole entry, looked up): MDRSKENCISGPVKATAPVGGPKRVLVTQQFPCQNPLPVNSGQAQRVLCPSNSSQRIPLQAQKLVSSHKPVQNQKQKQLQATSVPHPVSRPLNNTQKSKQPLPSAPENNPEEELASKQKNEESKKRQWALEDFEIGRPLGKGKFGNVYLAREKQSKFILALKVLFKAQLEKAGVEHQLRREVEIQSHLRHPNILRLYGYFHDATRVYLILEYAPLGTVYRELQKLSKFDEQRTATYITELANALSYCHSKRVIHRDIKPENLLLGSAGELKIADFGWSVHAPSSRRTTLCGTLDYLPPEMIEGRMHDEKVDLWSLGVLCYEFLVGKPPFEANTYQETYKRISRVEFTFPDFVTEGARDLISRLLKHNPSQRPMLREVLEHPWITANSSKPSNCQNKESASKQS
UniProt Q13177, sequence (whole entry, looked up): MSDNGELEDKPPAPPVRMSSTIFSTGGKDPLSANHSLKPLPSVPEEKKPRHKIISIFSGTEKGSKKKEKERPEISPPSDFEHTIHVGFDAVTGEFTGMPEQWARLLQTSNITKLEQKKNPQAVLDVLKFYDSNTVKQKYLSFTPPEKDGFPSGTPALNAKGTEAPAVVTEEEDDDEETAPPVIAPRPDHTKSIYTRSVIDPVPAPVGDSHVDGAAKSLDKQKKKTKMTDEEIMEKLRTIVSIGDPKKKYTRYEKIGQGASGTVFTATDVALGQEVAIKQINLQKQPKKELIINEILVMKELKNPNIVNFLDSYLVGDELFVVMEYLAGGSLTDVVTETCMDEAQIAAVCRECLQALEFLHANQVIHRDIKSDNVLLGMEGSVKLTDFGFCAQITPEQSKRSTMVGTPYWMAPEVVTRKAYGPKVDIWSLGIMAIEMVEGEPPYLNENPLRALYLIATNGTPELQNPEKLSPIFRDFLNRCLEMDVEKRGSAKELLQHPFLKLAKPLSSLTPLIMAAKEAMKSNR

Sample 1
Species: human
Sample: microsomes or S9
Tested at: 2 µM
Time: 0.5 h
Endpoint: remaining compound
CC(C)c1nc2sc3c(c2c(=O)[nH]1)CC(C)(C)OC3: 66.4%
Cc1cc(C)c2nc(Nc3nc(C)c(C)c(O)n3)nc(C)c2c1: 29.4%
Cc1c(-c2ccccc2)sc2ncnc(NS(=O)(=O)c3ccc(Cl)s3)c12: 0.329%
CCOc1cc(CNCCc2nc(C)oc2C)ccc1OCC(=O)Nc1ccccc1: 88.1%
O=C(O)c1ccc(-c2nc3scc(-c4ccc(F)cc4)c3c(=O)[nH]2)cc1: > 99%
COC(=O)c1ccc2c(Br)c(O)c(C(=O)OC(C)(C)C)cc2c1: 54.1%
O=C(CCS(=O)(=O)c1ccccc1)N(Cc1ccccc1)c1nc2ccccc2s1: 23.6%
CS(=O)(=O)N1CCC[C@H]1C(=O)NCCCn1nnc2ccccc21: 94.5%
CCCc1cc(-n2ccnc2C)n2nc3nc(C)cc(C)c3c2n1: 82.2%
Cc1ccc(/C=C/c2onc(C)c2S(=O)(=O)N2CCC(C(=O)Nc3cccnc3)CC2)cc1: 90.6%

Sample 2
Target: Diamine acetyltransferase 1 (Homo sapiens, UniProt P21673)
Action: inhibitor
Tested at: 10 µM
Relative to: control
Endpoint: remaining activity
Construct (P21673 1-171): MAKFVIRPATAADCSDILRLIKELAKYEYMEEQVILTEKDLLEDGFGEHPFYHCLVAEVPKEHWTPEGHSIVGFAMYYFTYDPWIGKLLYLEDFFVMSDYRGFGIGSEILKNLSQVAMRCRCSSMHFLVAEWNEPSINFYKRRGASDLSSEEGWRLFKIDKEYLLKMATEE
Cc1ccc([C@]2(C)CCCC2(C)C)cc1: 87.6%
COC(=O)C1=CO[C@@H](O[C@@H]2O[C@H](CO[C@@H]3O[C@H](CO)[C@@H](O)[C@H](O)[C@H]3O)[C@@H](O)[C@H](O)[C@H]2O)[C@@H]2C(CO)=CC[C@H]12: 102%
O=C(/C=C/c1ccc(O)c(O)c1)O[C@H](Cc1ccc(O)c(O)c1)C(=O)O: 89%
O=c1cc[nH]c(=O)[nH]1: 79.4%
CC1(C)[C@@H](O[C@@H]2O[C@H](C(=O)O)[C@@H](O)[C@H](O)[C@H]2O[C@@H]2O[C@H](C(=O)O)[C@@H](O)[C@H](O)[C@H]2O)CC[C@]2(C)[C@H]3C(=O)C=C4[C@@H]5C[C@](C)(C(=O)O)CC[C@]5(C)CC[C@@]4(C)[C@]3(C)CC[C@@H]12: 78.3%
C=CC1(C)CCC(C(C)(C)O)O1 (stereo not drawn): 113%
C[C@H](CC[C@@H](O[C@@H]1O[C@H](CO)[C@@H](O)[C@H](O)[C@H]1O[C@@H]1O[C@H](CO)[C@@H](O)[C@H](O)[C@H]1O)C(C)(C)O)[C@H]1CC[C@@]2(C)[C@H]3CC=C4[C@@H](CC[C@H](O[C@@H]5O[C@H](CO[C@@H]6O[C@H](CO)[C@@H](O)[C@H](O)[C@H]6O)[C@@H](O)[C@H](O)[C@H]5O)C4(C)C)[C@]3(C)[C@H](O)C[C@]12C: 101%
COc1ccc([C@@H]2CC(=O)c3c(O)cc(O[C@@H]4O[C@H](CO[C@@H]5O[C@@H](C)[C@H](O)[C@@H](O)[C@H]5O)[C@@H](O)[C@H](O)[C@H]4O)cc3O2)cc1O: 102%
O=C(O)c1ccc(O)c(O)c1: 73.1%

Sample 3
Target: Serine/threonine-protein kinase N2 (PKN2, Homo sapiens, UniProt Q16513)
UniProt Q16513, sequence (whole entry, looked up): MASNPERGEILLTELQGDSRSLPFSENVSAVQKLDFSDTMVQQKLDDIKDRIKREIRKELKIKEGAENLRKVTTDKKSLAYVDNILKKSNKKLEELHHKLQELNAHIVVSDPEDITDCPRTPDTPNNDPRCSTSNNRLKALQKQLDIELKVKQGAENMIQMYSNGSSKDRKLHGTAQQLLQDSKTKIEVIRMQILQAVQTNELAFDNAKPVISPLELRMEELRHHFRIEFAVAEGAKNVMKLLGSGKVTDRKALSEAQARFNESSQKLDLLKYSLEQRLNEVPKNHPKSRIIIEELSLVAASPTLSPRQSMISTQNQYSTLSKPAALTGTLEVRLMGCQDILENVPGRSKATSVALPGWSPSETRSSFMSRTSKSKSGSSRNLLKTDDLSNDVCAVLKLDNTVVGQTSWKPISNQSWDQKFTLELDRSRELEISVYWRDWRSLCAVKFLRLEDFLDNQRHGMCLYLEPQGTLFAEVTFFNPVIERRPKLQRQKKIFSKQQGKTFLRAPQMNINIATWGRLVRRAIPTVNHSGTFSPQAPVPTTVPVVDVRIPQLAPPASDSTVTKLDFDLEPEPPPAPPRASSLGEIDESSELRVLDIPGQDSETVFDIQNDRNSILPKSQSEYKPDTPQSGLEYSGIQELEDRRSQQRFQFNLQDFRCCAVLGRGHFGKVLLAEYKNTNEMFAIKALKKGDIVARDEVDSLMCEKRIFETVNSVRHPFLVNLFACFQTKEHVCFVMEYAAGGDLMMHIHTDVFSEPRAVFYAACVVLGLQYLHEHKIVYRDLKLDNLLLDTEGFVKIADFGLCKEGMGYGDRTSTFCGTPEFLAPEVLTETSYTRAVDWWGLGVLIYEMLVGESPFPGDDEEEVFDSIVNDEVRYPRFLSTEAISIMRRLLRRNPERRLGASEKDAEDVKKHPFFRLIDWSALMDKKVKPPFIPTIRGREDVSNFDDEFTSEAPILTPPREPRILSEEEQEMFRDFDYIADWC
Read-out: enzyme activity
Action: inhibitor
Tested at: 0.5 µM
Relative to: control
Endpoint: remaining activity
N#Cc1cnc2cnc(NCc3cccnc3)cc2c1Nc1ccc(F)c(Cl)c1: 85.9%
c1ccc2c(-c3ccncc3)c[nH]c2c1: 80.8%
CNc1cc2c(Nc3cccc(Br)c3)ncnc2cn1: 102%
CN1CCN(c2ccc3nc(-c4c(N)c5c(F)cccc5[nH]c4=O)[nH]c3c2)CC1: 98.5%
CCN(CC)CCCCN1c2ccccc2Oc2ccc(Cl)cc21: 72.4%
Cc1ccc(S(=O)(=O)/C=C/C#N)cc1: 81.5%
Nc1nc(Nc2ccc(S(N)(=O)=O)cc2)nn1C(=S)Nc1c(F)cccc1F: 19.1%
O=C1c2ccccc2-c2nc3nnnn3nc21: 77.1%
Oc1cccc(-c2nc(N3CCOCC3)c3oc4ncccc4c3n2)c1: 87.6%
N#C/C(=C(/N)SC1C=CC=CC1)c1cccc(C(O)c2ccncc2)c1 (stereo not drawn): 80.8%
COc1ccc(COc2ccc(Cc3cnc(N)nc3N)cc2OC)cc1: 90.9%
O=C1Nc2ccc(Br)cc2/C1=C/c1cc2c([nH]1)CCCC2: 91.3%
Clc1ccc(Nc2nnc(Cc3ccncc3)c3ccccc23)cc1: 99.9%
CCCCc1c(-c2ccc(O)cc2)[nH]c2nccnc12: 82.4%
O=C1Cc2c([nH]c3ccc(Br)cc23)-c2ccccc2N1: 96.8%
FC(F)(F)c1ccc(/C=C/c2nc(COc3ccc(CCCCn4ccnn4)cc3)co2)cc1: 107%
NC(=O)c1ccc(-c2nc(-c3ccc4c(c3)OCCO4)c(-c3ccccn3)[nH]2)cc1: 102%
c1ccc(-c2n[nH]c3c2oc2ccccc23)cc1: 97.5%
CCCCc1c(-c2ccc(OC)cc2)[nH]c2nccnc12: 88.6%
O=Nc1c(-c2c(O)[nH]c3cc(Br)ccc23)[nH]c2ccccc12: 85.6%
CC(C)N(CCC(=O)c1ccc2ccccc2c1)Cc1ccccc1: 98.7%
CC(C)(C)c1nc2c3cc[nH]c(=O)c3c3cc(F)ccc3c2[nH]1: 67.1%
COc1cc2c(Nc3ccc(Br)cc3F)ncnc2cc1OCC1CCN(C)CC1: 99.7%
O=C(O)/C=C/c1cc(Br)c(Br)c(Br)c1Br: 95.6%
C[C@@H](N)[C@H]1CC[C@H](C(=O)Nc2ccncc2)CC1: 59.7%

Sample 4
SMILES: CC(C)S(=O)(=O)c1ccc2nccc(Nc3ccc4sc(C5CCCC5)nc4c3)c2c1
Read-out: enzyme activity
Action: inhibitor
Tested at: 1 µM
Endpoint: activity vs control
Ephrin type-A receptor 3 (EPHA3, Homo sapiens, UniProt P29320): 130%
SRSF protein kinase 1 (SRPK1, Homo sapiens, UniProt Q96SB4): 95%
Aurora kinase A (AURKA, Homo sapiens, UniProt O14965): 99%
[Pyruvate dehydrogenase (acetyl-transferring)] kinase isozyme 4, mitochondrial (PDK4, Homo sapiens, UniProt Q16654): 95%
Serine/threonine-protein kinase PAK 2 (PAK2, Homo sapiens, UniProt Q13177): 92%
Casein kinase I isoform gamma-3 (CSNK1G3, Homo sapiens, UniProt Q9Y6M4): 127%
Tyrosine-protein kinase receptor UFO (AXL, Homo sapiens, UniProt P30530): 94.5%
Platelet-derived growth factor receptor beta (PDGFRB, Homo sapiens, UniProt P09619): 90%
Rhodopsin kinase GRK7 (GRK7, Homo sapiens, UniProt Q8WTQ7): 102%
Mitogen-activated protein kinase 13 (MAPK13, Homo sapiens, UniProt O15264): 102%

Excerpt of the above (sample 1):
CCOc1cc(CNCCc2nc(C)oc2C)ccc1OCC(=O)Nc1ccccc1: 88.1%
O=C(O)c1ccc(-c2nc3scc(-c4ccc(F)cc4)c3c(=O)[nH]2)cc1: > 99%
Cc1c(-c2ccccc2)sc2ncnc(NS(=O)(=O)c3ccc(Cl)s3)c12: 0.329%
Cc1cc(C)c2nc(Nc3nc(C)c(C)c(O)n3)nc(C)c2c1: 29.4%
O=C(CCS(=O)(=O)c1ccccc1)N(Cc1ccccc1)c1nc2ccccc2s1: 23.6%
CCCc1cc(-n2ccnc2C)n2nc3nc(C)cc(C)c3c2n1: 82.2%
